Results from different studies.
Every numbered part comes from another study and shows a few of its results, in no order.
UniProt Q9NRP7, sequence (whole entry, looked up): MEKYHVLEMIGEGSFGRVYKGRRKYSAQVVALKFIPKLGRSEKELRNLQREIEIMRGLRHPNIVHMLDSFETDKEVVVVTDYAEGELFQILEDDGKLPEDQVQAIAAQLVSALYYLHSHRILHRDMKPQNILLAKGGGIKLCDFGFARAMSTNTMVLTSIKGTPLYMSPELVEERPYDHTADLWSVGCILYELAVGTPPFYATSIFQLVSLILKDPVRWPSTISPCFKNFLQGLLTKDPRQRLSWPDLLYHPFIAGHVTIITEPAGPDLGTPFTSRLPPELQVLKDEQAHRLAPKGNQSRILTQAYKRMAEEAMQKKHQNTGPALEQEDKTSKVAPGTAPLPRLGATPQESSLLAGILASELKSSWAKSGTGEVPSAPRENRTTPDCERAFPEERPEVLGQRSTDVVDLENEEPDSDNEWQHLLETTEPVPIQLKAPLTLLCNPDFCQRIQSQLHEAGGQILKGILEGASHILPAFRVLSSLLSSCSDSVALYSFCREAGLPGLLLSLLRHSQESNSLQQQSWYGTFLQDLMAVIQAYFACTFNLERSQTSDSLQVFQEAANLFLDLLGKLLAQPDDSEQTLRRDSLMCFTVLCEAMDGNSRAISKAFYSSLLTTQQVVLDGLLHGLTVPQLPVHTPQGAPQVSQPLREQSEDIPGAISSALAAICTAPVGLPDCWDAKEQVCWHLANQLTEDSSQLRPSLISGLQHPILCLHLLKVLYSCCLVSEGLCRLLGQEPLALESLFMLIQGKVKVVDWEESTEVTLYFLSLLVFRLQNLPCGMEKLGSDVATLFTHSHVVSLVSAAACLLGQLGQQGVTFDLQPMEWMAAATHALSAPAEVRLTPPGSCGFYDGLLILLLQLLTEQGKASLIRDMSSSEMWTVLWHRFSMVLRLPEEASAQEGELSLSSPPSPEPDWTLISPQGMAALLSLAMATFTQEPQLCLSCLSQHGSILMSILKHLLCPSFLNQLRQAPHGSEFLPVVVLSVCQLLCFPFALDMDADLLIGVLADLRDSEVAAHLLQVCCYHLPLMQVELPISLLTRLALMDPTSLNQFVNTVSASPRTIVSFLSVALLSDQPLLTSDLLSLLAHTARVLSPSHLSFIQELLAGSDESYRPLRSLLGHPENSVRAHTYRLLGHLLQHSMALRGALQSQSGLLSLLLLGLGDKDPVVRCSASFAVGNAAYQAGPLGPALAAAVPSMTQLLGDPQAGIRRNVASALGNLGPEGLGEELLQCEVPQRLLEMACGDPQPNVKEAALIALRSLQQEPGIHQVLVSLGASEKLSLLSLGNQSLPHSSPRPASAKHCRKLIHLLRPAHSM
UniProt O96013, sequence (whole entry, looked up): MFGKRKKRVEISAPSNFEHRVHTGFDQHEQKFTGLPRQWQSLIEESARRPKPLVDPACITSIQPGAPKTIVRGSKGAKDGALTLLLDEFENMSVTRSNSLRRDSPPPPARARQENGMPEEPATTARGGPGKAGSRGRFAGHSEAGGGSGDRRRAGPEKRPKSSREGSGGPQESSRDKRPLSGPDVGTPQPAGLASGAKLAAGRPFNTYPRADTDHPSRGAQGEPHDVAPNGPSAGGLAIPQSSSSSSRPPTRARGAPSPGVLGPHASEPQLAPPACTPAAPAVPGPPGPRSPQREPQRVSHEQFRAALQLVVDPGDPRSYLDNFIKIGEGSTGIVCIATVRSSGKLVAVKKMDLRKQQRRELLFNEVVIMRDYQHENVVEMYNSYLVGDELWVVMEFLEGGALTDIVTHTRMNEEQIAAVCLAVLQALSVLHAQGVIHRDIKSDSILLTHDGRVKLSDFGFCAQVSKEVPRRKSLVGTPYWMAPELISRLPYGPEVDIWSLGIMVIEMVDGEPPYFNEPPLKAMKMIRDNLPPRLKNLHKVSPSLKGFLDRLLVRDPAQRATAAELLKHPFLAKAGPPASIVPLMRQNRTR
UniProt Q9HBY8, sequence (whole entry, looked up): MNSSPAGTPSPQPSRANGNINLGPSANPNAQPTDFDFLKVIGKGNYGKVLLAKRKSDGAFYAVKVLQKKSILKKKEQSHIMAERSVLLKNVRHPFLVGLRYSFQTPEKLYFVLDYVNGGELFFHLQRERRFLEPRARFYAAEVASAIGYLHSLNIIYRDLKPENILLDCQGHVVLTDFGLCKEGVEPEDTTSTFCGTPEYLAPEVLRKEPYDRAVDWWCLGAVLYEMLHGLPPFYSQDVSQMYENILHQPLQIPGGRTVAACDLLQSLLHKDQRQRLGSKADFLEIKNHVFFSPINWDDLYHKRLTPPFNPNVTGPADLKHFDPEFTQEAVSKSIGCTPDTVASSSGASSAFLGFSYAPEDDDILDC
UniProt Q59H18, sequence (whole entry, looked up): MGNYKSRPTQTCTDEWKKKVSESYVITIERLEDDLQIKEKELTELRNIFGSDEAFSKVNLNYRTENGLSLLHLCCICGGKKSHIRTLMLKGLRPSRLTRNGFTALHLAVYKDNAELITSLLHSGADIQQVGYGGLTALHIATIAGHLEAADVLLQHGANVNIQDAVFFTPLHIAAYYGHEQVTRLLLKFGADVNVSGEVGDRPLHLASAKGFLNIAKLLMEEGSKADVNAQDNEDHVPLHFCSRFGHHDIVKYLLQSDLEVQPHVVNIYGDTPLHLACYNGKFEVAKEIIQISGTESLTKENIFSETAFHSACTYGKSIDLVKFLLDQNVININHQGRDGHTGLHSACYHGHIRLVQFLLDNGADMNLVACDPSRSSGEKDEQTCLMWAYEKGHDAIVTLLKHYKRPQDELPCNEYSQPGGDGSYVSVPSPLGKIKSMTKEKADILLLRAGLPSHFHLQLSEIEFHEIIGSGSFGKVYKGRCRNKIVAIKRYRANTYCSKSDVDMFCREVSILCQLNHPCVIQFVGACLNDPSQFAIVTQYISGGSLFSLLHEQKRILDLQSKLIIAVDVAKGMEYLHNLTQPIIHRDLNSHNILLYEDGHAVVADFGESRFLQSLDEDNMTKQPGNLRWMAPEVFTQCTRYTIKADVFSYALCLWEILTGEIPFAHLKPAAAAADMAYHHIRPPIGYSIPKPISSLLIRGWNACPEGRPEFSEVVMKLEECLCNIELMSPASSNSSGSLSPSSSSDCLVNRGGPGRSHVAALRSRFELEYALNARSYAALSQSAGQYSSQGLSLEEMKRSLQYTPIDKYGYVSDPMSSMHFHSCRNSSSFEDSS
UniProt Q00535, sequence (whole entry, looked up): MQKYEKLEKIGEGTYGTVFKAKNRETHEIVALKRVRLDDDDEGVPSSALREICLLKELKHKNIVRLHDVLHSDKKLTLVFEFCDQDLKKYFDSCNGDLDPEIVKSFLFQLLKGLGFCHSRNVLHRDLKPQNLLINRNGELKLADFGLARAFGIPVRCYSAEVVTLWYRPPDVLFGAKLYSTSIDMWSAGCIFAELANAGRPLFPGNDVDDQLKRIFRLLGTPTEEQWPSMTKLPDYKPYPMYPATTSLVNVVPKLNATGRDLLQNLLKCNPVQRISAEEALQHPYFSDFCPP
UniProt P42680, sequence (whole entry, looked up): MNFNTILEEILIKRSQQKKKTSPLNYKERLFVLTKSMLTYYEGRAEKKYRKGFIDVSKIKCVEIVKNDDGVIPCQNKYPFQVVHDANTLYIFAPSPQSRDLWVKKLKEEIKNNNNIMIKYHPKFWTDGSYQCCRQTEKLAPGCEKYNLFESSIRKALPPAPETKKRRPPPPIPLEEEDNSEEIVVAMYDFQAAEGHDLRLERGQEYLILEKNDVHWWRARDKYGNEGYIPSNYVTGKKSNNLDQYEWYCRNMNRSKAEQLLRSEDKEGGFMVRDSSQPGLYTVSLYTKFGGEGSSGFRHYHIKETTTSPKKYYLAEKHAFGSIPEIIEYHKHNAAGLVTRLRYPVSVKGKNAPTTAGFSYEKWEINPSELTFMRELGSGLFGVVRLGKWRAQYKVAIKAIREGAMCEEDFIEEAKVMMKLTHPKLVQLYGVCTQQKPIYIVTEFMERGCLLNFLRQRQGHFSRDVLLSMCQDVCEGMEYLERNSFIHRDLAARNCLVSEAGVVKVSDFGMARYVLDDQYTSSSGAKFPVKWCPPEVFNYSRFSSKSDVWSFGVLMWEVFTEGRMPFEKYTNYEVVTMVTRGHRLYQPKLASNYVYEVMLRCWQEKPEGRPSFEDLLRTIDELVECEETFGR
UniProt P11309, sequence (whole entry, looked up): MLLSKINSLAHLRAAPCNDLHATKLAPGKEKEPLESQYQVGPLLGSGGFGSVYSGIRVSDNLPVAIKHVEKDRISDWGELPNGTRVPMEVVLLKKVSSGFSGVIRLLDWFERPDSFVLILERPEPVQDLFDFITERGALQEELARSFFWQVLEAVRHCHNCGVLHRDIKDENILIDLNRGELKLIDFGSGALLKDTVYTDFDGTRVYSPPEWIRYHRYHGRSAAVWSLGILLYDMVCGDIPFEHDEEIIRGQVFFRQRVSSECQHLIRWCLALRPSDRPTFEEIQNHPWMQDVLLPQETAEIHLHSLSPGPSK

Study 1
Structure (SMILES): Cn1cnc2cc3c(Nc4cccc(Br)c4)ncnc3cc21
Read-out: enzyme activity
Action: inhibitor
Concentration: 0.5 µM
Relative to: control
target | remaining activity
ERBB2 (Homo sapiens, UniProt P04626) | 47.4%
CAMKK1 (Homo sapiens, UniProt Q8N5S9) | 107%
SGK2 (Homo sapiens, UniProt Q9HBY8) | 104%
MARK1 (Homo sapiens, UniProt Q9P0L2) | 94.3%
EPHA2 (Homo sapiens, UniProt P29317) | 81.8%
CLK2 (Homo sapiens, UniProt P49760) | 93.9%
MAP3K20 (Homo sapiens, UniProt Q9NYL2) | 93.3%
PRKCZ (Homo sapiens, UniProt Q05513) | 102%
PIM1 (Homo sapiens, UniProt P11309) | 73.8%
YES1 (Homo sapiens, UniProt P07947) | 45.7%
Cyclin-dependent kinase 5, with p35 (CDK5, Homo sapiens, UniProt Q00535) | 84.6%
PAK6 (Homo sapiens, UniProt Q9NQU5) | 95%
TYRO3 (Homo sapiens, UniProt Q06418) | 94.5%
BRSK2 (Homo sapiens, UniProt Q8IWQ3) | 88.6%
CSNK1D (Homo sapiens, UniProt P48730) | 93.9%
SRPK1 (Homo sapiens, UniProt Q96SB4) | 96.1%
IGF1R (Homo sapiens, UniProt P08069) | 102%
EPHB3 (Homo sapiens, UniProt P54753) | 93.8%
FES (Homo sapiens, UniProt P07332) | 101%
Cyclin-dependent kinase 2, with cyclin E (CDK2, Homo sapiens, UniProt P24941) | 78.2%
ACVRL1 (Homo sapiens, UniProt P37023) | 102%
PAK4 (Homo sapiens, UniProt O96013) | 105%
TEC (Homo sapiens, UniProt P42680) | 123%
CAMK1 (Homo sapiens, UniProt Q14012) | 106%
DYRK1A (Homo sapiens, UniProt Q13627) | 106%

Study 2
Target: Diamine acetyltransferase 1 (Homo sapiens, UniProt P21673)
Action: inhibitor
Concentration: 10 µM
Relative to: control
Target sequence (P21673 1-171): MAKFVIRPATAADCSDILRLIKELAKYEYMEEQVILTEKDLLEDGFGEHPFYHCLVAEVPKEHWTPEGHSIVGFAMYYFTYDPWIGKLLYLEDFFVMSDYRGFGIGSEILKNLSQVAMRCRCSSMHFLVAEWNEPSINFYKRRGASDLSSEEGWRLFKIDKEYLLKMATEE
SMILES | remaining activity
OC[C@H]1O[C@@](CO)(O[C@H]2O[C@H](CO[C@@H]3O[C@H](CO)[C@@H](O)[C@H](O)[C@H]3O)[C@@H](O)[C@H](O)[C@H]2O)[C@@H](O)[C@@H]1O | 93.5%
COc1cc(/C=C/C(=O)O)ccc1O | 73.7%
CCCCCCCCCCCCC(=O)O | 99.9%
NCC(=O)O | 94.5%
CC1(C)C=Cc2c(ccc3c2OC[C@@H](c2ccc(O)cc2O)C3)O1 | 84.9%
O=C(O)c1cc(=O)cc(C(=O)O)o1 | 86.1%

Study 3
SMILES: CN1CCN(C(=O)c2ccc(NC(=O)Nc3ccc(N(C)c4ccnc(Nc5ccc(CS(C)(=O)=O)cc5)n4)cc3)cc2)CC1
Read-out: binding
Concentration: 1 µM
target | assay | remaining binding
TNNI3K (Homo sapiens, UniProt Q59H18) | competition with immobilised ligand | 92%
FLT3 (Homo sapiens, UniProt P36888) | competition with immobilised ligand | 1.5%
STK36 (Homo sapiens, UniProt Q9NRP7) | competition with immobilised ligand | 37%
ERBB3 (Homo sapiens, UniProt P21860) | competition with immobilised ligand | 85%
CAMK1D (Homo sapiens, UniProt Q8IU85) | – | 98%
ALK (Homo sapiens, UniProt Q9UM73) | – | 76%

Study 4
SMILES: CNC(=O)Nc1ccc2c(c1)CC[C@@]21OC(=O)N(CC(=O)N(Cc2ccc(F)cc2)[C@@H](C)C(F)(F)F)C1=O
Read-out: cell-free assay
Technique: competition with immobilised ligand
Concentration: 1 µM
target | remaining binding
SRC (Homo sapiens, UniProt P12931) | 91%
DMPK (Homo sapiens, UniProt Q09013) | 100%
EGFR (Homo sapiens, UniProt P00533, del746-750) | 67%
BMPR2 (Homo sapiens, UniProt Q13873) | 100%
DYRK1B (Homo sapiens, UniProt Q9Y463) | 81%
FLT3 (Homo sapiens, UniProt P36888, D835H) | 86%
STK10 (Homo sapiens, UniProt O94804) | 100%
STK36 (Homo sapiens, UniProt Q9NRP7) | 77%

Study 5
Matrix: hydrocarbon/water
Compound | logD
CC(C)C[C@@H]1NC(=O)[C@H](Cc2ccc(O)cc2)NC(=O)[C@H]2CCCN2C(=O)[C@H](CC(C)C)NC(=O)[C@H](CC2CCCCC2)NC(=O)[C@@H](CC(C)C)NC1=O | 1.04
CC(C)C[C@@H]1NC(=O)[C@H](Cc2ccccc2)NC(=O)[C@H]2CCCN2C(=O)[C@H](CC(C)C)NC(=O)[C@H](C)NC(=O)[C@@H](C)NC1=O | -1.64
CCN1CC(=O)N[C@@H](CC(C)C)C(=O)N2CCC[C@@H]2C(=O)N(C)[C@@H](C)C(=O)N[C@@H](CC2CCCCC2)C(=O)N(C)[C@@H](C)C(=O)N[C@@H](CC(C)C)C(=O)N(C)Cc2cn(nn2)CC(=O)N[C@@H](CC(C)C)C1=O | 0.565
CC(C)CC1NC(=O)CN(CC2CCOCC2)C(=O)C2CCCN2C(=O)C(CC(C)C)NC(=O)C(C)N(C)C(=O)C(CC(C)C)NC(=O)CN(Cc2ccc3c(c2)OCO3)C(=O)C2CCCN2C(=O)C(C)NC(=O)C(C)N(C)C1=O (stereo not drawn) | 1.66
CCCN1CC(=O)N[C@@H](CC(C)C)C(=O)N(C)[C@@H](C)C(=O)N[C@@H](CC(C)C)C(=O)N(C)Cc2cn(nn2)CC(=O)N[C@@H](CC(C)C)C(=O)N(C)[C@@H](C)C(=O)N[C@@H](CC(C)C)C(=O)N2CCC[C@@H]2C1=O | 0.0651
CCOC(=O)[C@@H]1CSCC(=O)N[C@H](CC)C(=O)N(CC(C)C)CC(=O)N[C@@H](CC(C)C)C(=O)N(C)[C@H](C)C(=O)N(C)[C@@H](C)C(=O)N[C@@H](CC(C)C)C(=O)N(C)[C@H](C)C(=O)N[C@@H](CC(C)C)C(=O)N1C | 0.987
CCOC(=O)[C@@H]1CSCC(=O)N[C@@H](CC)C(=O)N(C)[C@@H](C)C(=O)N[C@H](CC(C)C)C(=O)N2CCC[C@@H]2C(=O)N(CC(C)C)CC(=O)N[C@@H](CC(C)C)C(=O)N(C)[C@H](C)C(=O)N[C@@H](CC(C)C)C(=O)N1C | 0.746
CCC[C@@H]1NC(=O)[C@H](C)N(C)C(=O)[C@H](CC(C)C)NC(=O)Cn2cc(nn2)CN(C)C(=O)[C@H](CC(C)C)NC(=O)[C@H](C)N(C)C(=O)[C@H](CC)NC(=O)CN(CCC)C(=O)[C@H]2CCCN2C1=O | -1.65
CC[C@@H]1NC(=O)[C@H](C)N(C)C(=O)[C@H]2CCCN2C(=O)[C@H](CC(C)C)NC(=O)CN(CC)C(=O)[C@H](CC(C)C)NC(=O)Cn2cc(nn2)CN(C)C(=O)[C@H](CC(C)C)NC(=O)[C@H](C)N(C)C1=O | -1.93

Repeated from above (study 3):
target | assay | remaining binding
TNNI3K (Homo sapiens, UniProt Q59H18) | competition with immobilised ligand | 92%
FLT3 (Homo sapiens, UniProt P36888) | competition with immobilised ligand | 1.5%
STK36 (Homo sapiens, UniProt Q9NRP7) | competition with immobilised ligand | 37%
ERBB3 (Homo sapiens, UniProt P21860) | competition with immobilised ligand | 85%
CAMK1D (Homo sapiens, UniProt Q8IU85) | – | 98%
ALK (Homo sapiens, UniProt Q9UM73) | – | 76%
